Experimental data pooled from the literature.
Each numbered part is a random draw from the data of one study; scales do not carry over between parts. Positions count from the first letter of the parent shown.

Study 1
Target: CCNA1, cyclin fold, Cln2 fusion (human)
Technique: yeast growth competition, sequencing
Sample: yeast
Setting: weak parent motif
Reference: not given
Direction: higher = stronger binding
Parent: CDKN1A docking peptide (human); SKACRRLFGPVDS; partner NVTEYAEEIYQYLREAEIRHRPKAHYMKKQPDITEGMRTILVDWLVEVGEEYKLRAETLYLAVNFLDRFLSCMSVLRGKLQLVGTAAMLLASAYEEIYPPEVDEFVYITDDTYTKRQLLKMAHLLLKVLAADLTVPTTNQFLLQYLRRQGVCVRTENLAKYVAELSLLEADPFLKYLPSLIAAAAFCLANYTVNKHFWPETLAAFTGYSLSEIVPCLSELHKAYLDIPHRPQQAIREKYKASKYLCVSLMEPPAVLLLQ
Substitution	normalised enrichment score
K2T	0.581
C4M	-0.422
F8M	0.323
C4S	0.386
L7C	0.479
K2A	0.432
R5P	-0.163
D12Q	0.37
F8S	0.23

Study 2
Target: Prothrombin, mature alpha-thrombin (F2, Homo sapiens, UniProt P00734)
Technique: aptamer microarray, sandwich
Molecule type: DNA with 2'F-ANA
Sample: in vitro
Concentration: 200 nM
Setting: whole 15-mer aptamer, many near background
Added: Cy3 exosite-II aptamer, 400 nM
Direction: higher = stronger binding
Sequence: GGTTGGTGTGGTTGG
Modification	mean fluorescence intensity [a.u.]
2'F-ANA at 1 5 6 8 9 11 13 14	45
2'F-ANA at 4 10 11	86.8
2'F-ANA at 2 4 6 8 10 11 12 13 15	80.9
2'F-ANA at 1 2 5 6 7 8 10 15	81.5
2'F-ANA at 1 2 5 7 8 9 10 11 12 13 14	66.8
2'F-ANA at 1 3 10 11 13 15	74.9
2'F-ANA at 1 2 6 8 9 15	187
2'F-ANA at 1 2 3 4 7 10 11 12 13 15	64.3

Study 3
Target: TAR DNA-binding protein 43, full length, His tag (TARDBP, Homo sapiens, UniProt Q13148, residues 1-414)
Technique: RNA Bind-n-Seq
Molecule type: RNA
Sample: in vitro
Concentration: 20 nM
Setting: 6-mer, flanks averaged, single round
Added: 150 mM KCl
Reference: input library
Direction: higher = stronger binding
Sequence	6-mer enrichment (R)
CUCGUG	0.777
CCUCCC	0.641
GAAAGC	0.807
CCACAG	0.75
UGUGCU	0.847
GGGUAC	2.01
GCUUAU	0.628
GCAAUU	0.662
UAAGAU	0.627
AGGCCC	0.783

Mixed results
Substance	target	assay	system	conditions	how to read	measurement	result
PhoQ, residues 284 288 289 292 302 303 QWGLFV	PhoP, residues 12 14 15 18 19 AGCRL (Escherichia coli, UniProt P23836)	Sort-seq, item: YFP reporter	E. coli	PhoQ-PhoP variant library, added: 10 µM Mg2+	reference: high Mg2+ state, higher = stronger signaling	fold induction	6.37

A few entries again (study 2):
Modification	mean fluorescence intensity [a.u.]
2'F-ANA at 4 10 11	86.8
2'F-ANA at 2 4 6 8 10 11 12 13 15	80.9
